Experimental data pooled from the literature.
Each line is one published result; not all experiments were run side by side. ± marks the error that the study gave.

C[C@]12CC[C@H]3[C@@H](CC=C4CC(O)CC[C@@]43CO)[C@@H]1CCC2O (stereo partly drawn)  crown-like structures (measured: F4/80; rat, GAN diet-induced MASH, white adipose tissue; dose not given; relative to: vehicle): decreased
CN1CC[C@]23c4c5ccc(O)c4O[C@H]2[C@@H](O)C=C[C@H]3[C@H]1C5  peak increase in tail withdrawal latency (hot water tail withdrawal test; normal Sprague-Dawley rats; ip, 3 mg/kg): 3.6 ± 0.5 s
COc1ccc2[nH]cc(CCN)c2c1  z-scored log2 fold change (binding, equilibrium dialysis LC-MS; 5 µM, thermostabilized A2AR-BRIL construct; relative to: no-protein control, direction not given): 2.07
O=C1Nc2ccc(Cl)cc2C(c2ccccc2Cl)=NC1O (stereo not drawn)  minimum effective dose (food self-administration decrease, progressive-ratio schedule; rhesus monkey; intravenous; relative to: vehicle): 3 mg/kg
COc1cc(CCN)ccc1O  z-scored log2 fold change (binding, equilibrium dialysis LC-MS; 5 µM, thermostabilized A2AR-BRIL construct; relative to: no-protein control, direction not given): 0.511
Cc1ncc2n1-c1ccc(Cl)cc1C(c1ccccc1F)=NC2  response rate (food-maintained responding; rhesus monkey; intramuscular, 1.0 mg/kg, 30 min, acute dependence model; relative to: control): < 25%
CCCC(C(=O)c1ccc2c(c1)OCO2)N1CCCC1.Cl (racemic)  serotonin level (HPLC-ECD; rat, striatum postmortem; dose not given, 40 min): decreased
CC[C@@H]1CN2CCc3c([nH]c4cccc(O)c34)[C@@H]2C[C@@H]1/C(=C\OC)C(=O)OC  Vmax (human liver S9; 10 min, S9 0.2 mg/mL): 0.0931 nmol/min/mg
O=C(O)c1cn(Cc2ccc(F)cc2)c2ccccc12  Vmax (glucuronidation, substrate; human liver microsomes; 60 min, 37 °C, added: UDPGA): 1.11 ± 0.17 nmol/min/mg

Excerpt of the above:
O=C1Nc2ccc(Cl)cc2C(c2ccccc2Cl)=NC1O (stereo not drawn)  minimum effective dose (food self-administration decrease, progressive-ratio schedule; rhesus monkey; intravenous; relative to: vehicle): 3 mg/kg
